Assay results collected from several papers.
Protocols differ between the studies behind these lines. “And” joins repeats or separate records; there may be more than shown. ± gives the spread as reported.
Uncharacterized protein: Uncharacterized protein (Trypanosoma brucei brucei, UniProt Q386Q8)
SLC7A5: Large neutral amino acids transporter small subunit 1 (SLC7A5, Homo sapiens, UniProt Q01650)
Sequence of UniProt Q01650 (whole entry, looked up): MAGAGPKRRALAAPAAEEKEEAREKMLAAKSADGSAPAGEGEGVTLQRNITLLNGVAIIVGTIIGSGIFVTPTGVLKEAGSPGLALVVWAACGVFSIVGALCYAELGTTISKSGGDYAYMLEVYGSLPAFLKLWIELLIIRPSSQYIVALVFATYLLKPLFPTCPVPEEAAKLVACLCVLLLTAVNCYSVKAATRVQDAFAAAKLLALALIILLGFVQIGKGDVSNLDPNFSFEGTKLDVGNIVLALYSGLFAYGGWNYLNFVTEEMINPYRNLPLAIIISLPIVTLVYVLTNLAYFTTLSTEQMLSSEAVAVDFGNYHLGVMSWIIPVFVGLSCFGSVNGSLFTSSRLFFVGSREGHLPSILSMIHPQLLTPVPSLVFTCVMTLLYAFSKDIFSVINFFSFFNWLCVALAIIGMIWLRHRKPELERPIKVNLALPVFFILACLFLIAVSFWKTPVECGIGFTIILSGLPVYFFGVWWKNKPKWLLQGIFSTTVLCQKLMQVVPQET
ADRB2: Beta-2 adrenergic receptor (ADRB2, Homo sapiens, UniProt P07550)
Sequence of UniProt P07550 (whole entry, looked up): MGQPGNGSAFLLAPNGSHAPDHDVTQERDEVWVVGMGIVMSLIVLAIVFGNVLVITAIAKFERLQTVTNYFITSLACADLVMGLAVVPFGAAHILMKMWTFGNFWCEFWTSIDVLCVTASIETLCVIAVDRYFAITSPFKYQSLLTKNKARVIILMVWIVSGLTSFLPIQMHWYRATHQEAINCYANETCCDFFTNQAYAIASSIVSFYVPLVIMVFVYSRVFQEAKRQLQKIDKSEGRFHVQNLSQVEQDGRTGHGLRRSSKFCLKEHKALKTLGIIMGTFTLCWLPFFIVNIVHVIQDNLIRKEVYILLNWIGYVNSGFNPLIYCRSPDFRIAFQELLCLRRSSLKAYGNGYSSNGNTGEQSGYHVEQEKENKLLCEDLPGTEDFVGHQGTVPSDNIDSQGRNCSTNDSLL
NTSR1: Neurotensin receptor type 1 (NTSR1, Homo sapiens, UniProt P30989)
Sequence of UniProt P30989 (whole entry, looked up): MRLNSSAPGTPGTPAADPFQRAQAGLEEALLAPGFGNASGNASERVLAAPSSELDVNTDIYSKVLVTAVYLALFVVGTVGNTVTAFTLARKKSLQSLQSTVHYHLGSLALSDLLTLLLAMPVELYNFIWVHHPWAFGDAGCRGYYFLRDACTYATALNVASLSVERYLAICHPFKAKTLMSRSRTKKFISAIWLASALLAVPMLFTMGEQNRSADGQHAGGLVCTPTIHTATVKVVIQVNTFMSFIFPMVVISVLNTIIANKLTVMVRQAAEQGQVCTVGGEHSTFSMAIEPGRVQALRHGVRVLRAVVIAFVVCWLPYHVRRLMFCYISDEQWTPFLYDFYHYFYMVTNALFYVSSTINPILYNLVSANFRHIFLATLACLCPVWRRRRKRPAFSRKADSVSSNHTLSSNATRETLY
Gria1: Glutamate receptor 1 (Gria1, Rattus norvegicus, UniProt P19490)
Sequence of UniProt P19490 (whole entry, looked up): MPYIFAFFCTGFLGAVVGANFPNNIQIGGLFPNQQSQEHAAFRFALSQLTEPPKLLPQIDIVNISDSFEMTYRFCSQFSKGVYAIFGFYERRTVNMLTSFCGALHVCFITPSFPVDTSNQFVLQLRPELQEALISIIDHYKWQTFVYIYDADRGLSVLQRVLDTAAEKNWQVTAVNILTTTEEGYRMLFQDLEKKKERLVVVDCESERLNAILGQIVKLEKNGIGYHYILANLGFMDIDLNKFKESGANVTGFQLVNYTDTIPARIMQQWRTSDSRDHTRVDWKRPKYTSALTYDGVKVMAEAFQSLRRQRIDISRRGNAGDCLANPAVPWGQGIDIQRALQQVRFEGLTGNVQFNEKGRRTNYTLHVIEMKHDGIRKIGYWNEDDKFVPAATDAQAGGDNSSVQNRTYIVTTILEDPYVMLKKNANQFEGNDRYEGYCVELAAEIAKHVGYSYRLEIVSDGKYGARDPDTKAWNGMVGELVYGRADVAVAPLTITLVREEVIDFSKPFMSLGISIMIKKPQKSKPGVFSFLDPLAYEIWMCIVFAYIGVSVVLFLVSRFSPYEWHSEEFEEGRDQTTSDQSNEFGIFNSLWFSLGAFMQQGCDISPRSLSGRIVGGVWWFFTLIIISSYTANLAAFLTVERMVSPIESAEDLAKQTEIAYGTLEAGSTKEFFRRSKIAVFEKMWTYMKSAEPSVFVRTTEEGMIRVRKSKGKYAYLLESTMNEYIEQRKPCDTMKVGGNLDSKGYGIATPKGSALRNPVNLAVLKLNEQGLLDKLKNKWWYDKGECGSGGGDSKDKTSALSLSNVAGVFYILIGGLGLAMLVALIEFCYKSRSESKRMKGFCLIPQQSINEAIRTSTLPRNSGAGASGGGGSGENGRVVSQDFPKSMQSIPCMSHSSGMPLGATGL
NNMT: Nicotinamide N-methyltransferase (NNMT, Homo sapiens, UniProt P40261)
Sequence of UniProt P40261 (whole entry, looked up): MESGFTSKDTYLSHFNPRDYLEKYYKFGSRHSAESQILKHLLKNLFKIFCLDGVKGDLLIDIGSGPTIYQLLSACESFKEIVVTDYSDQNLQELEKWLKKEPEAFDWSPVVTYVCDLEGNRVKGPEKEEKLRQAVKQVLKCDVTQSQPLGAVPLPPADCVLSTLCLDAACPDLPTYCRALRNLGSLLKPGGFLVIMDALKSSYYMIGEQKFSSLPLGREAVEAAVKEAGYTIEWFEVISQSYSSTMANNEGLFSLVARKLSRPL
ppa: Inorganic pyrophosphatase (ppa, Escherichia coli, UniProt P0A7A9)
Sequence of UniProt P0A7A9 (whole entry, looked up): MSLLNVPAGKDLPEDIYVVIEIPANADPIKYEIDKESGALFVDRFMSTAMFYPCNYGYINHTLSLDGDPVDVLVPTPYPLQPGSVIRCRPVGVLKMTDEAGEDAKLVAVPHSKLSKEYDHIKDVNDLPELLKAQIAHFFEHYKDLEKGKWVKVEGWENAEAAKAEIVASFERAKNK
Sequence of UniProt Q9UH17 (whole entry, looked up): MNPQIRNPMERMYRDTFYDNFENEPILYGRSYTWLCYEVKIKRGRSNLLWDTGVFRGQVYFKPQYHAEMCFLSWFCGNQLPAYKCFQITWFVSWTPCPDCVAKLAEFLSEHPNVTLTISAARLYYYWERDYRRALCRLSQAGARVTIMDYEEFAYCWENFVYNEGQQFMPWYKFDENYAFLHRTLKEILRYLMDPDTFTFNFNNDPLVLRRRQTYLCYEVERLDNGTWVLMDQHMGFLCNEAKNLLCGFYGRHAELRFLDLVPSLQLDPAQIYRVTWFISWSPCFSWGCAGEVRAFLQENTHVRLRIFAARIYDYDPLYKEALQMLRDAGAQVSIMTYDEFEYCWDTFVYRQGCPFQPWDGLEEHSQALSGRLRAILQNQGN
Sequence of UniProt Q96BR1 (whole entry, looked up): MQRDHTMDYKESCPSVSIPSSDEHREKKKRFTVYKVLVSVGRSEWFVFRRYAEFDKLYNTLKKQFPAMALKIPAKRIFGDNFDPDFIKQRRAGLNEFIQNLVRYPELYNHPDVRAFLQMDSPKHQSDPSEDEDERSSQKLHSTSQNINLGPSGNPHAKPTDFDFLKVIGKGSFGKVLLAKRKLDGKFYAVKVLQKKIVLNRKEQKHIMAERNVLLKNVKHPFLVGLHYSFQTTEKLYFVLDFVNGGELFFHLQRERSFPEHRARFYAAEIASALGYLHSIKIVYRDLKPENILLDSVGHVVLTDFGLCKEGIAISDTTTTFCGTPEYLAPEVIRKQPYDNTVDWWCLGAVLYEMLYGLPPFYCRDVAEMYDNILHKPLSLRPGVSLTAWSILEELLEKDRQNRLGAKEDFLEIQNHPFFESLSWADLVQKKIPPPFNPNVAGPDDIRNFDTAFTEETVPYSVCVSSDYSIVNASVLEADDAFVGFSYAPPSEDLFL
Sequence of UniProt O00329 (whole entry, looked up): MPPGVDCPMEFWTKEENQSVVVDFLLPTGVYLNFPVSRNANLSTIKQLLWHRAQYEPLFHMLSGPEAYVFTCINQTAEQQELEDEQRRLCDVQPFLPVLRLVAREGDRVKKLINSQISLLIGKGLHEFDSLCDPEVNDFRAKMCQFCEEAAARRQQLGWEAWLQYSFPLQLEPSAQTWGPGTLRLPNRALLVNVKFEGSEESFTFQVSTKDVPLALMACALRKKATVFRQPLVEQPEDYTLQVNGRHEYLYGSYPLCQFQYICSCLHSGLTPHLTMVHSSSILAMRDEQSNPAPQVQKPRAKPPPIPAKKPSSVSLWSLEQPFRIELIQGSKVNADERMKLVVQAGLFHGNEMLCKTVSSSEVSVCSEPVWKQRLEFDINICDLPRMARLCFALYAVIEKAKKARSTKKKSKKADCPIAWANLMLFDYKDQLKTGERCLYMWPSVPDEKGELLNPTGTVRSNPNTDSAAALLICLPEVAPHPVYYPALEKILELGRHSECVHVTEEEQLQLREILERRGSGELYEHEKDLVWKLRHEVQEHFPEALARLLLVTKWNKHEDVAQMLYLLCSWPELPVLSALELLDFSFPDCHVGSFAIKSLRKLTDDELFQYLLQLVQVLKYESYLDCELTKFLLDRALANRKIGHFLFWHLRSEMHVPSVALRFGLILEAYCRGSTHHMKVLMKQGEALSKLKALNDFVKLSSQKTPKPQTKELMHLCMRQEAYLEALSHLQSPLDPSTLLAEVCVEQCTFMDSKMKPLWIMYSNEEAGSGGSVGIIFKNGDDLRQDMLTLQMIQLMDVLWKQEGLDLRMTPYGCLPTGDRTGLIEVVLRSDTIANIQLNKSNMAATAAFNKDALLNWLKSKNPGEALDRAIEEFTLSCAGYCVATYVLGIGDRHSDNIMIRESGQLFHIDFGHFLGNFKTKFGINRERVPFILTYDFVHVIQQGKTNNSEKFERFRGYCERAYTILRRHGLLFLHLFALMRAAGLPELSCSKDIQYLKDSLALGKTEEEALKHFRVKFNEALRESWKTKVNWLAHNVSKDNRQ
Sequence of UniProt P09391 (whole entry, looked up): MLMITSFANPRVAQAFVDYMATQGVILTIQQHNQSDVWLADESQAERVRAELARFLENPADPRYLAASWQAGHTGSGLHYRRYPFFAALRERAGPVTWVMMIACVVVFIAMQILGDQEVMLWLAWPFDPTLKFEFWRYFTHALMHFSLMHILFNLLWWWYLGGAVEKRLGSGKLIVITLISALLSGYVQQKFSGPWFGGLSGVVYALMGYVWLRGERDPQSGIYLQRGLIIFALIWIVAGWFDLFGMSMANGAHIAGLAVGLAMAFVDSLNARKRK

CC[C@H](C)[C@H](NC(=O)[C@H](CCCCN)NC(=O)[C@H](CCCCN)NC(=O)[C@H](CC(=O)O)NC(=O)[C@@H](N)CCC(=O)O)C(=O)N[C@H](C(=O)N[C@H](C(=O)N[C@@H](CCSC)C(=O)N1CCC[C@H]1C(=O)N[C@@H](CS)C(=O)N[C@@H](CCCCN)C(=O)N[C@@H](CS)C(=O)N[C@@H](C)C(=O)N1CCC[C@H]1C(=O)N[C@@H](CO)C(=O)N[C@@H](CCCNC(=N)N)C(=O)N[C@@H](CCC(N)=O)C(=O)N[C@@H](CC(C)C)C(=O)N[C@H](C(=O)N[C@@H](CCC(N)=O)C(=O)N[C@H](C(=O)N[C@@H](Cc1c[nH]c2ccccc12)C(=O)N[C@@H](CC(C)C)C(=O)N[C@@H](CCC(N)=O)C(=O)N[C@@H](C)C(=O)N[C@@H](CCCCN)C(=O)N[C@@H](CCC(=O)O)C(=O)O)C(C)C)C(C)C)[C@@H](C)CC)C(C)C — IC50 (MAD2L2 (Homo sapiens, UniProt Q9UI95, R124A); REV7 complex disruption, inhibitor, fluorescence polarization; with: FAM-RBM1 peptide): 1.5 ± 0.03 µM
CC(C)(C)OC(=O)C[N+](C)(C)CCCN1c2ccccc2CCc2ccc(Cl)cc21 — IC50 (Uncharacterized protein; enzyme activity, inhibitor, coupled colorimetric; with: E. coli pyrophosphatase coupling): 50.6 µM
N[C@@H](Cc1c[nH]c2ccc(OCc3ccccc3-c3ccoc3)cc12)C(=O)O — IC50 (SLC7A5; transporter uptake, inhibitor, radiometric): 15.6 µM
CCOc1ccc(C(=O)/C=C/c2ccc(C(C)C)cc2)cc1 — IC50 (MAOB (Homo sapiens, UniProt P27338); enzyme activity, inhibitor): 0.663 µM
O=C1NC(=O)[C@](CNC(=O)[C@@H](Cc2ccc(C(F)(F)F)cc2)C2CC2)(C2CC2)N1 — IC50 (A disintegrin and metalloproteinase with thrombospondin motifs 7 (Homo sapiens, UniProt Q9UKP4); enzyme activity, inhibitor, FRET): 0.055 µM
COc1ccc(C(=O)CC2(O)C(=O)Nc3cc(Cl)cc(Cl)c32)c(OC)c1 (centres unmarked) — IC50 (Uncharacterized protein; inhibitor, coupled colorimetric; Trypanosoma brucei): > 100 µM
Nc1ccc2c(NC3CCCCC3)nc(Nc3ccc(F)c(F)c3)nc2c1 — IC50 (ADRB2; cAMP production, antagonist, GloSensor; with: isoproterenol 1 µM): 7.6 ± 2.5 µM
COc1ccccc1C1CCN(c2nc(C3(F)CCCC3)nc3ccc(N(C)CCO)cc23)CC1 — IC50 (NTSR1; G protein activation, antagonist): 2.09 µM
O=c1cc(-c2ccc(O)cc2)oc2c([C@@H]3OC[C@H](O)[C@H](O)[C@H]3O)c(O)c([C@@H]3O[C@H](CO)[C@@H](O)[C@H](O)[C@H]3O)c(O)c12 — IC50 (CAMK2D (Homo sapiens, UniProt Q13557); binding, LanthaScreen Eu binding; initial read): 95.6 µM
NC(=O)c1ccc2nc(CN3CCCC3c3ccco3)cc(O)c2c1 (centres unmarked) — IC50 (DNA dC->dU-editing enzyme APOBEC-3B (Homo sapiens, UniProt Q9UH17); enzyme activity, inhibitor, HPLC): 178 µM
O=Cc1ccc(-c2ccc(O)cc2)c(C(=C2C=CC(=O)C=C2)c2ccc(O)cc2)c1C#Cc1ccc(O)cc1 — IC50 (PDE4D (Homo sapiens, UniProt Q08499); enzyme activity, inhibitor): 0.338 µM
CN(C)c1nc(NCc2ccc(F)c(C(F)(F)F)c2)c(/N=N/c2ccc(Cl)cc2)c(N(C)C)n1 — IC50 (Chitinase (OfChi-h, Ostrinia furnacalis, UniProt Q4AE59); enzyme activity, inhibitor, fluorescence): 0.37 µM
O=C(O)Cc1cc2c(cc1C(=O)c1ccccc1Br)OCO2 — IC50 (Gria1; ion current, patch clamp): 4.68 µM
COC(=O)C1=CNC(C)=C(C(=O)OC)C1c1ccc(F)c(C(F)(F)F)c1 (centres unmarked) — IC50 (CACNA1C (Homo sapiens, UniProt Q13936); ion current, inhibitor, patch clamp; pH 7.4): 4.8 µM
Cn1c(/C=C/c2cn(C)c3ccccc23)nc2ccccc2c1=O — IC50 (Uncharacterized protein; enzyme activity, inhibitor, coupled colorimetric; with: E. coli pyrophosphatase coupling): 74 µM
COc1cc(CF)c(C(N)=O)cn1 — IC50 (NNMT; enzyme activity in cells, inhibitor): 0.631 µM
Cc1ccc2c(c1C)NC(=O)C2(O)CC(=O)c1ccc2c(c1)OCO2 (centres unmarked) — IC50 (Uncharacterized protein; inhibitor, coupled colorimetric; Trypanosoma brucei): 365 µM
COC(=O)Cc1cc2c(cc1C(=O)c1ccccc1)OCO2 — IC50 (Gria1; glutamate-evoked current, inhibitor, whole-cell patch clamp; HEK293T, homomeric receptor): 6.17 µM
Cc1ccc2c(c1Br)C(O)(CC(=O)c1ccc3c(c1)OCO3)C(=O)N2 (centres unmarked) — IC50 (ppa; enzyme activity, inhibitor): > 300 µM
CCC1(O)CCCN(C(=O)c2ccc(-c3ccccc3C(F)(F)F)cc2)C1 (centres unmarked) — IC50 (DNA dC->dU-editing enzyme APOBEC-3B, C-terminal domain (Homo sapiens, UniProt Q9UH17); ssDNA binding, inhibitor, fluorescence polarization displacement; with: fluorophore-labelled ssDNA): 533 µM
CNCc1ccc2c(c1)C[C@H](CNC(=N)N)[C@H]2NC(=O)C(=O)Nc1ccc(Cl)c(F)c1 — IC50 (env (Human immunodeficiency virus 1, UniProt O40222); viral infection; Cf2Th-CD4/CCR5, HIV-1; 48 h): 3.07 µM
COc1ccccc1C1CCN(c2nc(C3CC3)nc3ccc(N(C)CCO)cc23)CC1 — IC50 (NTSR1; G protein activation, antagonist): 1.14 µM
CNc1cc(Cl)c(C(N)=O)cn1 — IC50 (NNMT; enzyme activity in cells, inhibitor): 3.16 µM
COc1ccc2c(c1OC)C(=O)N(c1ccc(Cl)c(Cl)c1)C2 — IC50 (ppa; enzyme activity, inhibitor): > 100 µM
CCN(CC)CC(=O)Nc1cccc(-n2cc(-c3ccc4ccc(-c5cn(-c6cccc(NC(=O)CN(CC)CC)c6)nn5)cc4c3)nn2)c1 — IC50 (JAK1 (Homo sapiens, UniProt P23458); enzyme activity, inhibitor): > 10 µM
c1ccc2c(NC3CCCCC3)nc(NC3CCCCC3)nc2c1 — IC50 (ADRB2; β-arrestin recruitment, antagonist): 4 µM
Cc1nc(S(=O)(=O)Nc2cc3c(cc2Oc2cccc(COCC(C)C)c2)n(C)c(=O)n3C)cn1C — IC50 (Bromodomain-containing protein 1, bromodomain (BRD1, Homo sapiens, UniProt O95696); acetylated histone H4 peptide binding, inhibitor, HTRF): 0.696 µM
O=C1C(Nc2ccc(Cl)cc2)c2ccccc2N1Cc1ccccc1 (centres unmarked) — IC50 (PIK3CD (Homo sapiens, UniProt O00329); enzyme activity, inhibitor, ADP detection): 0.0348 µM
Cc1c(C)c(C)c(C[N+]2(C)CCN(CCCN3c4ccccc4Sc4ccc(Cl)cc43)CC2)c(C)c1C — IC50 (Uncharacterized protein; enzyme activity, inhibitor, coupled colorimetric; with: E. coli pyrophosphatase coupling): 35.6 µM
Fc1cccc(Nc2nc(NC3CCCCC3)c3ccccc3n2)c1 — IC50 (ADRB2; cAMP production, antagonist, GloSensor; with: isoproterenol 1 µM): > 50 µM
Nc1cccc(NC(P(=O)(O)O)P(=O)(O)O)c1 — IC50 (polyphosphate kinase 2 (Cytophaga hutchinsonii, UniProt A0A6N4SMB5); enzyme activity, inhibitor, HPLC; 30 min, 37 °C, with: 0.04 mM ADP and 0.3 mM polyP): 70.5 µM and 70 µM
O=C1CC(c2ccccc2)N1S(=O)(=O)c1ccccc1 (centres unmarked) — IC50 (glpG (Escherichia coli, UniProt P09391); enzyme activity, inhibitor): 3 µM
CNc1cc(F)c(C(N)=O)cn1 — IC50 (NNMT; enzyme activity, inhibitor): 5.01 µM
COc1ccc2c(c1OC)C(=O)N(c1cccc(NC(C)=O)c1)C2 — IC50 (ppa; enzyme activity, inhibitor): > 100 µM
O=C(CCNC(=O)CNC(=O)CC(c1ccccc1)(c1ccccc1)c1ccccc1)NC[C@@H]1CCCN(C(=O)c2ccc(F)cc2)C1 — IC50 (CHRM5 (Homo sapiens, UniProt P08912); ligand displacement, radioligand; cell membranes): > 30 µM
N[C@@H](Cc1c[nH]c2ccc(OCc3cccc(-c4ccccc4)c3)cc12)C(=O)O — IC50 (SLC7A5; transporter uptake, inhibitor, radiometric): 23.9 µM
Cc1nn(-c2cccc(N)c2)c(=O)c2cnc(Nc3ccc(N4CCNCC4)cc3)nc12 — IC50 (SGK3 (Homo sapiens, UniProt Q96BR1); enzyme activity, inhibitor): 1.09 µM
N=C(N)SCc1ccccc1CSC(=N)N — IC50 (CYP2C19 (Homo sapiens, UniProt P33261); enzyme activity, inhibitor): > 10 µM

Excerpt of the above:
CC[C@H](C)[C@H](NC(=O)[C@H](CCCCN)NC(=O)[C@H](CCCCN)NC(=O)[C@H](CC(=O)O)NC(=O)[C@@H](N)CCC(=O)O)C(=O)N[C@H](C(=O)N[C@H](C(=O)N[C@@H](CCSC)C(=O)N1CCC[C@H]1C(=O)N[C@@H](CS)C(=O)N[C@@H](CCCCN)C(=O)N[C@@H](CS)C(=O)N[C@@H](C)C(=O)N1CCC[C@H]1C(=O)N[C@@H](CO)C(=O)N[C@@H](CCCNC(=N)N)C(=O)N[C@@H](CCC(N)=O)C(=O)N[C@@H](CC(C)C)C(=O)N[C@H](C(=O)N[C@@H](CCC(N)=O)C(=O)N[C@H](C(=O)N[C@@H](Cc1c[nH]c2ccccc12)C(=O)N[C@@H](CC(C)C)C(=O)N[C@@H](CCC(N)=O)C(=O)N[C@@H](C)C(=O)N[C@@H](CCCCN)C(=O)N[C@@H](CCC(=O)O)C(=O)O)C(C)C)C(C)C)[C@@H](C)CC)C(C)C — IC50 (MAD2L2 (Homo sapiens, UniProt Q9UI95, R124A); REV7 complex disruption, inhibitor, fluorescence polarization; with: FAM-RBM1 peptide): 1.5 ± 0.03 µM
CC(C)(C)OC(=O)C[N+](C)(C)CCCN1c2ccccc2CCc2ccc(Cl)cc21 — IC50 (Uncharacterized protein; enzyme activity, inhibitor, coupled colorimetric; with: E. coli pyrophosphatase coupling): 50.6 µM
N[C@@H](Cc1c[nH]c2ccc(OCc3ccccc3-c3ccoc3)cc12)C(=O)O — IC50 (SLC7A5; transporter uptake, inhibitor, radiometric): 15.6 µM
CCOc1ccc(C(=O)/C=C/c2ccc(C(C)C)cc2)cc1 — IC50 (MAOB (Homo sapiens, UniProt P27338); enzyme activity, inhibitor): 0.663 µM
O=C1NC(=O)[C@](CNC(=O)[C@@H](Cc2ccc(C(F)(F)F)cc2)C2CC2)(C2CC2)N1 — IC50 (A disintegrin and metalloproteinase with thrombospondin motifs 7 (Homo sapiens, UniProt Q9UKP4); enzyme activity, inhibitor, FRET): 0.055 µM
COc1ccc(C(=O)CC2(O)C(=O)Nc3cc(Cl)cc(Cl)c32)c(OC)c1 (centres unmarked) — IC50 (Uncharacterized protein; inhibitor, coupled colorimetric; Trypanosoma brucei): > 100 µM
